Measured values of several laboratories.
Lines come from different studies, so protocols differ. “And” joins repeats or separate records; there may be more than shown.
TDP1: Tyrosyl-DNA phosphodiesterase 1 (TDP1, Homo sapiens, UniProt Q9NUW8)
Chain of UniProt Q9NUW8 (whole entry, looked up): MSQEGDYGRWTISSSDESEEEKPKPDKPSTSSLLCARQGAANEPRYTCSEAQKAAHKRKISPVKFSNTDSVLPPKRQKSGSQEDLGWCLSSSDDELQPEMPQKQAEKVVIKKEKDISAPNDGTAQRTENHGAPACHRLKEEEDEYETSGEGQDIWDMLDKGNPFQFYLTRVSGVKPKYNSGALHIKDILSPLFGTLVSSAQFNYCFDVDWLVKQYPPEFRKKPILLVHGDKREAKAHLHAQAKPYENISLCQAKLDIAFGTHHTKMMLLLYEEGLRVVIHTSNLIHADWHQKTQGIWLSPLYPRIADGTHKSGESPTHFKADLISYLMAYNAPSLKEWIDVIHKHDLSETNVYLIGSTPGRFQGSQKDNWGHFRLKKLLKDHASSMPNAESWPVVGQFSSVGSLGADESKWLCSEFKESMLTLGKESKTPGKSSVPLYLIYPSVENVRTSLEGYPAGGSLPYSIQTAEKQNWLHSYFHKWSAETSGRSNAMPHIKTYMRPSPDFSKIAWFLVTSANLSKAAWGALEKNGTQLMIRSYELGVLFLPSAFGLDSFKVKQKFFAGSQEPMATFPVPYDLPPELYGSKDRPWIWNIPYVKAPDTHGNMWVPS
Chain of UniProt P0A7A9 (whole entry, looked up): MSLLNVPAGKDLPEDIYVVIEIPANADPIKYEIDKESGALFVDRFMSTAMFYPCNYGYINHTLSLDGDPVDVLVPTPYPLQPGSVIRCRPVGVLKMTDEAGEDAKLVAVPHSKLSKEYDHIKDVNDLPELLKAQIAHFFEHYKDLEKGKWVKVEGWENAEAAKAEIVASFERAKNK

| Compound | target or system | test | system | setting | scale | quantity | result |
| --- | --- | --- | --- | --- | --- | --- | --- |
| COC1C=COC2(C)Oc3c(C)c(O)c4c(c3C2=O)C2=NC3(CCN(CC(C)C)CC3)NC2=C(NC(=O)C(C)=CC=CC(C)C(O)C(C)C(O)C(C)C(OC(=O)Nc2cccnn2)C1C)C4=O (stereo not drawn) | THP-1 derived macrophages |  |  |  | reference: intracellular over extracellular | intracellular/extracellular ratio | 23 |
| CC1(C)CC[C@@]2(CO)C(=C3C=C[C@@H]4[C@@]5(C)CC[C@H](O)[C@@](C)(CO)[C@@H]5CC[C@@]4(C)[C@]3(C)C[C@@H]2O)C1 | LO2 |  |  | 50 µM, 24 h |  | viability | 91% and 106% and 84% and 83% and 90% and 97% |
| COC1C=COC2(C)Oc3c(C)c(O)c4c(c3C2=O)C2=NC3(CCN(CC(C)C)CC3)NC2=C(NC(=O)C(C)=CC=CC(C)C(O)C(C)C(O)C(C)C(OC(=O)Nc2cscn2)C1C)C4=O (stereo not drawn) | THP-1 derived macrophages |  |  | 30 min | reference: intracellular over extracellular | intracellular/extracellular ratio | 92.5 |
| CCCCCC(=O)Oc1c(C)c(OC)c2c(c1C)OC(=O)[C@@H](CCCC)[C@]2(O)/C=C/c1ccccc1 (relative stereo) | normal human liver cell line | cytotoxicity, SRB |  | 72 h |  | IC50 | > 50 µM |
| COc1ccccc1NC(=O)OC1C(C)C(OC)C=COC2(C)Oc3c(C)c(O)c4c(c3C2=O)C2=NC3(CCN(CC(C)C)CC3)NC2=C(NC(=O)C(C)=CC=CC(C)C(O)C(C)C(O)C1C)C4=O (stereo not drawn) | THP-1 derived macrophages |  |  |  | reference: intracellular over extracellular | intracellular/extracellular ratio | 140 |
| N=C(N)NCCC[C@@H]1NC(=O)[C@H](CCCNC(=N)N)NC(=O)[C@@H](CCCNC(=N)N)NC(=O)[C@@H](CCCNC(=N)N)NC(=O)[C@H](C(c2ccccc2)c2ccccc2)NC(=O)[C@H](Cc2c[nH]c3ccccc23)NC(=O)[C@H](C(c2ccccc2)c2ccccc2)NC1=O | human red blood cells | haemolysis |  | 2 h, 37 °C |  | HC50 | 260 µg/mL |
| O=c1cccccc1Cl | HepDES19 | cell growth or viability, MTS |  | 72 h |  | CC50 | 57 µM |
| CC1(F)CN(C(=O)Cn2c(=O)c(C(=O)NCc3ccc(Cl)cc3)cc3nc(N4CCN(CCN)C4=O)cnc32)C1 | MRC-5 | cell viability, CCK-8 |  |  |  | CC50 | > 40 µM |
| COC(=O)c1c(C)cc(O)c(=O)c(O)c1Br | HepDES19 | cell growth or viability, MTS |  | 72 h |  | CC50 | 78.4 µM |
| CCOC(=O)N1CCN(c2ccccc2C=NOCc2ccc(-c3nc4cc(-c5ccccc5)ccn4c3Nc3ccc(C(=O)O)cc3)cc2)CC1 (mixture of isomers) | TDP1 | enzyme activity, inhibitor |  | 100 µM, unpurified compound |  | inhibition | 11.7% |
| CCCCCCCCCC(=O)Oc1c(C)c(OC)c2c(/C=C/c3ccccc3)c(CCCCCCCC)c(=O)oc2c1C | normal human liver cell line | cytotoxicity, SRB |  | 72 h |  | IC50 | > 50 µM |
| COc1ccccc1N1Cc2ccc(OC)c(OC)c2C1=O | Uncharacterized protein (Trypanosoma brucei brucei, UniProt Q386Q8) | inhibitor, coupled colorimetric | Trypanosoma brucei |  |  | IC50 | > 100 µM |
| Cc1cc(O)c(=O)c(O)cc1-c1ccccc1 | HepDES19 | cell growth or viability, MTS |  | 72 h |  | CC50 | 47 µM |
| CNc1sc(C(=O)c2ccc(OC)cc2)c(N)c1C#N | Inorganic pyrophosphatase (ppa, Escherichia coli, UniProt P0A7A9) | inhibitor, counter-screen, coupling enzyme alone |  |  |  | IC50 | 64.1 µM |
| O=CCNCCOn1c(=O)n(OCCNCCO)c(=O)n(OCCNCCOn2c(=O)n(OCCNCCO)c(=O)n(OCCNCCO)c2=O)c1=O | HUVEC | cell growth or viability, MTT |  | 200 µg/mL, 72 h |  | viability | 8.8% |
| Cc1ccc(/C=C/C(=O)c2ccccc(=O)c2O)cc1 | HepDES19 | cell growth or viability, MTS |  | 72 h |  | CC50 | 20 µM |
| COc1ccc2ncc(F)c(C[C@H](O)[C@H]3OC[C@H](NCc4ccc(C)cc4)CO3)c2n1 | HepG2 | cytotoxicity |  | 24 h |  | IC50 | 67.9 µg/mL |

| Compound | target or system | test | system | setting | scale | quantity | result |
| --- | --- | --- | --- | --- | --- | --- | --- |
| CC(=O)Nc1nc(C=NOCc2ccc(-c3nc4cc(-c5ccccc5)ccn4c3Nc3ccc(C(=O)O)cc3)cc2)c(Br)s1 (mixture of isomers) | TDP1 | enzyme activity, inhibitor |  | 100 µM, unpurified compound |  | inhibition | 83.6% |
| O=C1NC2(CC2)COc2ncc(F)cc2[C@H]2COCCN2c2ccn3ncc1c3n2 | CHL |  |  | 300 µg/mL, 4 h, with rat liver S9 |  | structural aberrations | 0% |
| COC(=O)c1c2c(cc(O)c(=O)c1O)COC2=O | HepDES19 | cell growth or viability, MTS |  | 72 h |  | CC50 | 88.2 µM |
| COc1ccc2nccc(CC[C@H]3OC[C@H](NCc4ccc(Cl)c(Cl)c4)CO3)c2c1 | HepG2 | cytotoxicity |  | 24 h |  | IC50 | 10.6 µg/mL |
| O=C(Oc1cc(OC(=O)c2cc(O)c(O)c(O)c2)c2ccccc2c1)c1cc(O)c(O)c(O)c1 | TZM-bl | MTT |  | 5 to 20 µM, 48 h |  | viability reduction | ≤ 20% |
| CC[C@H](C)[C@@H](C(=O)N[C@@H](Cc1ccc(O)cc1)C(=O)N1CCC[C@H]1C(=O)N[C@@H](Cc1ccccc1)C(=O)O)n1cc(C(Cc2ccc(O)cc2)NC(=O)[C@@H](NC(=O)[C@H](CCCNC(=N)N)NC(=O)[C@@H](N)CC(=O)O)C(C)C)nn1 (stereo partly drawn) | HepG2 | cell growth or viability, MTT |  | 200 µM, 24 h |  | viability | 64% |
| O=C(CCNC(=O)c1ccsc1)Nc1cccc(Oc2ccc(Cl)cc2)c1 | HepG2 transfected with LHBs/HBc | CellTiter-Glo |  | 10 µM | direction not given | viability Z-score | 0.689 |
| COc1cc(C)c(C(=O)c2cccs2)cc(O)c1=O | HepDES19 | cell growth or viability, MTS |  | 72 h |  | CC50 | 100 µM |
| CCCC(=O)Oc1c(C)c(OC)c2c(c1C)OC(=O)[C@@H](CC)[C@]2(O)/C=C/c1ccccc1 (racemic) | normal human liver cell line | cytotoxicity, SRB |  | 72 h |  | IC50 | > 50 µM |
| Nc1nc2c(ncn2COCCO)c(=O)[nH]1 | MDBK | cell growth or viability, MTT |  | 72 h |  | CC50 | 256 µg/mL |
| COC1C=COC2(C)Oc3c(C)c(O)c4c(c3C2=O)C2=NC3(CCN(CC(C)C)CC3)NC2=C(NC(=O)C(C)=CC=CC(C)C(O)C(C)C(O)C(C)C(OC(=O)c2cccnc2)C1C)C4=O (stereo not drawn) | THP-1 derived macrophages |  |  | 30 min |  | intracellular/extracellular ratio | 1.6 |
| N=C(N)NCCC[C@@H](NC(=O)[C@H](Cc1ccccc1)NC(=O)[C@H](Cc1ccccc1)NC(=O)[C@@H](CCCNC(=N)N)NC(=O)CCCC[C@@H]1SC[C@@H]2NC(=O)N[C@@H]21)C(N)=O | MDBK |  |  | 100 µM, 10% serum |  | cytotoxicity | not toxic |
| O=C(Nc1ccc(O)c(=O)cc1)c1ccccc1 | HepDES19 | cell growth or viability, MTS |  | 72 h |  | CC50 | > 100 µM |
| COC1C=COC2(C)Oc3c(C)c(O)c4c(c3C2=O)C2=NC3(CCN(CC(C)C)CC3)NC2=C(NC(=O)C(C)=CC=CC(C)C(O)C(C)C(O)C(C)C(OC(=O)Nc2cnccn2)C1C)C4=O (stereo not drawn) | THP-1 derived macrophages |  |  | 30 min | reference: intracellular over extracellular | intracellular/extracellular ratio | 31.4 |
| Cc1cc(O)c(=O)c(O)cc1C(=O)CC1CCCCC1 | HepDES19 | cell growth or viability, MTS |  | 72 h |  | CC50 | 76.6 µM |
| N=C(N)NCCC[C@@H]1NC(=O)[C@H](CCCNC(=N)N)NC(=O)[C@@H](CCCNC(=N)N)NC(=O)[C@H](C(c2ccccc2)c2ccccc2)NC(=O)[C@H](C(c2ccccc2)c2ccccc2)NC(=O)[C@H](C(c2ccccc2)c2ccccc2)NC(=O)[C@H](CCCNC(=N)N)NC1=O | human red blood cells | haemolysis |  | 2 h, 37 °C |  | HC50 | 165 µg/mL |

Some of these lines once more:
| Compound | target or system | test | system | setting | scale | quantity | result |
| --- | --- | --- | --- | --- | --- | --- | --- |
| N=C(N)NCCC[C@@H]1NC(=O)[C@H](CCCNC(=N)N)NC(=O)[C@@H](CCCNC(=N)N)NC(=O)[C@@H](CCCNC(=N)N)NC(=O)[C@H](C(c2ccccc2)c2ccccc2)NC(=O)[C@H](Cc2c[nH]c3ccccc23)NC(=O)[C@H](C(c2ccccc2)c2ccccc2)NC1=O | human red blood cells | haemolysis |  | 2 h, 37 °C |  | HC50 | 260 µg/mL |
| O=c1cccccc1Cl | HepDES19 | cell growth or viability, MTS |  | 72 h |  | CC50 | 57 µM |
| CC1(F)CN(C(=O)Cn2c(=O)c(C(=O)NCc3ccc(Cl)cc3)cc3nc(N4CCN(CCN)C4=O)cnc32)C1 | MRC-5 | cell viability, CCK-8 |  |  |  | CC50 | > 40 µM |
| COC(=O)c1c(C)cc(O)c(=O)c(O)c1Br | HepDES19 | cell growth or viability, MTS |  | 72 h |  | CC50 | 78.4 µM |
| CCOC(=O)N1CCN(c2ccccc2C=NOCc2ccc(-c3nc4cc(-c5ccccc5)ccn4c3Nc3ccc(C(=O)O)cc3)cc2)CC1 (mixture of isomers) | TDP1 | enzyme activity, inhibitor |  | 100 µM, unpurified compound |  | inhibition | 11.7% |
